Measurements gathered from unrelated publications.
Compare with care: the assays were run in different laboratories.
Cell line: CAKI-1

COc1cc(CNC(=O)C[C@H](C)CCC=C(C)C)ccc1OCc1cn(-c2ccccc2[N+](=O)[O-])nn1
growth percent (SRB; 10 µM, 48 h): 48.6%

O=C([O][Ti+2][O]C(=O)c1ccc([P+]([Au-][Cl])(c2ccccc2)c2ccccc2)cc1)c1ccc([P+]([Au-][Cl])(c2ccccc2)c2ccccc2)cc1.c1cc[cH-]c1.c1cc[cH-]c1
IC50 (cell viability, XTT; 24 h): 10.3 µM

COc1cc(CNC(=O)C[C@H](C)CCC=C(C)C)ccc1OCc1cn(-c2cccc(Cl)c2)nn1
growth percent (SRB; 10 µM, 48 h): 87.6%

CC(=O)OC[C@H]1O[C@@H](Sc2sc(C(=O)c3ccc(Br)cc3)c(N)c2-c2nc3ccccc3s2)[C@H](OC(C)=O)[C@@H](OC(C)=O)[C@@H]1OC(C)=O
growth (SRB; 10 µM, 48 h; relative to: untreated): 85.5%

O=C(O)c1ccc([P+]([Au-][Cl])(c2ccccc2)c2ccccc2)cc1
IC50 (cell growth or viability, XTT): 19.2 µM

CC(=O)OC[C@H]1O[C@@H](Sc2sc(C(=O)c3ccc(C)cc3)c(N)c2-c2nc3ccccc3s2)[C@H](OC(C)=O)[C@@H](OC(C)=O)[C@H]1OC(C)=O
growth (SRB; 10 µM, 48 h; relative to: untreated): 58.5%

CCC(=C(c1ccc(Cl)cc1)c1ccc(OCCCN(C)C)cc1)c1ccc(OC)cc1
GI50 (cell growth or viability): 5.55 µM

COc1cc(CNC(=O)C[C@H](C)CCC=C(C)C)ccc1OCc1cn(-c2cccc([N+](=O)[O-])c2)nn1
growth percent (SRB; 10 µM, 48 h): 69.5%

CC/C=C\C/C=C\C/C=C\C/C=C\C/C=C\C/C=C\CCC(=O)Nc1ccn(C2OC(CO)C(O)C2(F)F)c(=O)n1 (stereo not shown)
GI50 (cell growth or viability, SRB): 0.0253 µM

O=C1Nc2ccccc2/C1=N\Nc1nnc2n1N=C(c1ccc(Cl)cc1)CS2
inhibition (cell growth or viability, SRB; 10 µM): 13%

CC(Cc1ccc(Cl)cc1)=C(c1ccc(Cl)cc1)c1ccc(OCCN(C)C)cc1
GI50 (cell growth or viability): 4.63 µM

COc1ccc(C2=Nn3c(NN=C4C(=O)N(C)c5ccc(Br)cc54)nnc3SC2)cc1
inhibition (cell growth or viability, SRB; 10 µM): 33%

COc1cc(CNC(=O)C[C@H](C)CCC=C(C)C)ccc1OCc1cn(-c2ccc([N+](=O)[O-])cc2)nn1
growth percent (SRB; 10 µM, 48 h): 72.1%

For quick reference, copied from above:
CC(Cc1ccc(Cl)cc1)=C(c1ccc(Cl)cc1)c1ccc(OCCN(C)C)cc1
GI50 (cell growth or viability): 4.63 µM

CC(=O)OC[C@H]1O[C@@H](Sc2sc(C(=O)c3ccc(Br)cc3)c(N)c2-c2nc3ccccc3s2)[C@H](OC(C)=O)[C@@H](OC(C)=O)[C@@H]1OC(C)=O
growth (SRB; 10 µM, 48 h; relative to: untreated): 85.5%
